Measured values collected from several papers.
Parts stem from different laboratories: compare values within a part only.
Sequence of UniProt P30291 (whole entry, looked up): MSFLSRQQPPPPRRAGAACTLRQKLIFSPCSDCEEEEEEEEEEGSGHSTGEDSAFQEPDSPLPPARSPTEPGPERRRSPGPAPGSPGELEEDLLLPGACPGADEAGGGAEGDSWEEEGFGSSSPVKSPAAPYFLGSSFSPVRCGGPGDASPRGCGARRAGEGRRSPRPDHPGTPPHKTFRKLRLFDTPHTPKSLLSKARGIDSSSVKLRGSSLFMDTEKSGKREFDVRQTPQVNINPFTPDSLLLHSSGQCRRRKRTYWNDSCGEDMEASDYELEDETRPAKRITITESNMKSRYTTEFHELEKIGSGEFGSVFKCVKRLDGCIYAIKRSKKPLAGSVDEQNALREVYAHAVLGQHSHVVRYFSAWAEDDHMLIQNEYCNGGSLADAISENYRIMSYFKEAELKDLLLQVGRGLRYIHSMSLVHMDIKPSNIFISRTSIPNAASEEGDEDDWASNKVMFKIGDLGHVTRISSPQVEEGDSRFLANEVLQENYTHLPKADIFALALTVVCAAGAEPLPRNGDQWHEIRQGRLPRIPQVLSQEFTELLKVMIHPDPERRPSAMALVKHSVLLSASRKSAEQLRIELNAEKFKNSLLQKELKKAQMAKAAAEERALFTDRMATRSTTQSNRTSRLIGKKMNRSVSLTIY
Sequence of UniProt P78368 (whole entry, looked up): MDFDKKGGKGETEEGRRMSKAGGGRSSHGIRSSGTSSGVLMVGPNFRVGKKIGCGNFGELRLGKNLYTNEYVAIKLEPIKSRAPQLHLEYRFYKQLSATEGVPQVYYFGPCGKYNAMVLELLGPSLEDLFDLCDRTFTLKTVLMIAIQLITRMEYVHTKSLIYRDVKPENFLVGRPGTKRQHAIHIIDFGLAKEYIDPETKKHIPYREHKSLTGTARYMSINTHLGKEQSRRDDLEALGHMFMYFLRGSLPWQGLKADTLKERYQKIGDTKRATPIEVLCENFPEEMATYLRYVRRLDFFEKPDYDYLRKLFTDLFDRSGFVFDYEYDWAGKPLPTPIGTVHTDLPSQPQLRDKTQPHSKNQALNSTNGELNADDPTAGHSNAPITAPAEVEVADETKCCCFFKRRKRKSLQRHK
Sequence of UniProt Q99558 (whole entry, looked up): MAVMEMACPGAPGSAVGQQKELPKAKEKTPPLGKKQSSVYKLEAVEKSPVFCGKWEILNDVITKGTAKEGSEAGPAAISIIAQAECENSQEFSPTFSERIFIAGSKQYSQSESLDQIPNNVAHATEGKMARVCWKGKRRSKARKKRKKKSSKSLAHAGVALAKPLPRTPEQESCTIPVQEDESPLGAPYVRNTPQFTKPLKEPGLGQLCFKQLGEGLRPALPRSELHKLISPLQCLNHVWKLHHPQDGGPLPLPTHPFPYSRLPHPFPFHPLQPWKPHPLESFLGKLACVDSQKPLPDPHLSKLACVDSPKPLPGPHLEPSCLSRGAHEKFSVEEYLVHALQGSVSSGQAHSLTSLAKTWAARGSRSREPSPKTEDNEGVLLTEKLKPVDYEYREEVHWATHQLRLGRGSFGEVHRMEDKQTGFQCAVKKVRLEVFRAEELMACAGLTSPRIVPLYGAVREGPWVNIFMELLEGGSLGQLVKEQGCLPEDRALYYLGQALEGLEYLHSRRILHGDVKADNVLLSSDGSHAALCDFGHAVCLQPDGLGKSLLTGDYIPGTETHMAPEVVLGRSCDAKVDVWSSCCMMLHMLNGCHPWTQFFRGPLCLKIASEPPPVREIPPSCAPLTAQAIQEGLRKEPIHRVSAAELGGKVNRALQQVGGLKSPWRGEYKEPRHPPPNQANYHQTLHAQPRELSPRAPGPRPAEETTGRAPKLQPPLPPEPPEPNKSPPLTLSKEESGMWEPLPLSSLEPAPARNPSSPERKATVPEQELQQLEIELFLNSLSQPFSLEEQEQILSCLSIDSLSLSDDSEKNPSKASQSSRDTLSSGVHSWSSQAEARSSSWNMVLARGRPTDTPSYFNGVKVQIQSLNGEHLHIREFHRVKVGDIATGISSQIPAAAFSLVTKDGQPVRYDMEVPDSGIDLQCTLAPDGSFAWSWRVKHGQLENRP
Sequence of UniProt Q8TF76 (whole entry, looked up): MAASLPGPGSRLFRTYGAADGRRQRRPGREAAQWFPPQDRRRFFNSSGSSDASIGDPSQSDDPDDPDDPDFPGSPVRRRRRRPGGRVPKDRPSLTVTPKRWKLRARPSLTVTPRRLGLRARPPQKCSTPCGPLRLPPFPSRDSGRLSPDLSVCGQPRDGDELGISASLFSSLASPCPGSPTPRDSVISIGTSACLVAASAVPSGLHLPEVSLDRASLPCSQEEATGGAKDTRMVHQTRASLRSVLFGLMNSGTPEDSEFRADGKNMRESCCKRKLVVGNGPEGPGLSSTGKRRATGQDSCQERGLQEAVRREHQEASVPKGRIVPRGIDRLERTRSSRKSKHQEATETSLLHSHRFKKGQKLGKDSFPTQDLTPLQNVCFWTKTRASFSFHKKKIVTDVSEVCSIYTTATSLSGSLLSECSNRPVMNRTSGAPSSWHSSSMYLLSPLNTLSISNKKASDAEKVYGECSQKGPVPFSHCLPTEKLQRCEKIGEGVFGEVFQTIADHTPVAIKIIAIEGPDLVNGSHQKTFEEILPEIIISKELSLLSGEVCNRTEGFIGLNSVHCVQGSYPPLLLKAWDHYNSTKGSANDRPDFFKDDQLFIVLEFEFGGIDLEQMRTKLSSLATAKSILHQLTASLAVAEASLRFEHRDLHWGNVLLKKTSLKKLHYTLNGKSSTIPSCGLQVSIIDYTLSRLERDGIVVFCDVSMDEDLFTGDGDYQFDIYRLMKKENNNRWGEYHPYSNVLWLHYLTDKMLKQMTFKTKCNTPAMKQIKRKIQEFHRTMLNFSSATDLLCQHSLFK
Sequence of UniProt P49841 (whole entry, looked up): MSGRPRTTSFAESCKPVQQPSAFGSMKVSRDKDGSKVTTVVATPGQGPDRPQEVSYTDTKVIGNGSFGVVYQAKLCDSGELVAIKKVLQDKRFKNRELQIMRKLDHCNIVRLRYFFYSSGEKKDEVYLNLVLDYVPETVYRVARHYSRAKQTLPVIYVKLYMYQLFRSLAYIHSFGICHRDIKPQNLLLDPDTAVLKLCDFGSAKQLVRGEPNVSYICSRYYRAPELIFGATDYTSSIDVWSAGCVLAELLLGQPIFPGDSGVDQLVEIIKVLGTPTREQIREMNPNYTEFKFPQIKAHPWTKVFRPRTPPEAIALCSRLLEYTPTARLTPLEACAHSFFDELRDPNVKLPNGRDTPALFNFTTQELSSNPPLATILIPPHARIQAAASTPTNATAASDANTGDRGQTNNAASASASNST
Sequence of UniProt Q2M2I8 (whole entry, looked up): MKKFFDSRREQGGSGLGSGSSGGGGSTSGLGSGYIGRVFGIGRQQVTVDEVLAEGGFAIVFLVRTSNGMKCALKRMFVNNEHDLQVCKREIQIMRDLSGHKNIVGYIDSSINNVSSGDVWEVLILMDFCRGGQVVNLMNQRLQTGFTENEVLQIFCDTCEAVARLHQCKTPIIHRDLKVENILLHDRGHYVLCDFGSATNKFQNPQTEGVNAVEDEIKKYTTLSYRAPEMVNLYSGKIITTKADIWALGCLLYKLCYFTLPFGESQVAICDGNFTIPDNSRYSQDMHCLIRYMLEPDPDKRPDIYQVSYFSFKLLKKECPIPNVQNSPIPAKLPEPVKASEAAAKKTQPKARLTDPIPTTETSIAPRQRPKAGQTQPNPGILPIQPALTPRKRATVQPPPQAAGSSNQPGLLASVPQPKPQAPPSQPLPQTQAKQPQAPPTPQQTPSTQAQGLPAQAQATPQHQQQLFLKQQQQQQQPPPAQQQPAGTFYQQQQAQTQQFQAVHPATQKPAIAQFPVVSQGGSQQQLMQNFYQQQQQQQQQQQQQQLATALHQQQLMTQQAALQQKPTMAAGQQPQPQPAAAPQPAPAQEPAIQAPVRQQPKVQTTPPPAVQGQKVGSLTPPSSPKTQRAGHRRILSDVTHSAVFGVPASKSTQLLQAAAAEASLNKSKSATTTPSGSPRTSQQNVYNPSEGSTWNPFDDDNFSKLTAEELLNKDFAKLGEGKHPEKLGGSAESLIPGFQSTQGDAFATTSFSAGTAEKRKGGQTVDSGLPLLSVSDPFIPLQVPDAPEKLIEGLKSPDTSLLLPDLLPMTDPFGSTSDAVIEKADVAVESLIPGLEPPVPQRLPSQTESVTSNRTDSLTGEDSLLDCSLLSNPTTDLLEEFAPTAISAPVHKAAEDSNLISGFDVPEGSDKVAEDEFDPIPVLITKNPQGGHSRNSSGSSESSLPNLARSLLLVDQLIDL
Sequence of UniProt Q86YV6 (whole entry, looked up): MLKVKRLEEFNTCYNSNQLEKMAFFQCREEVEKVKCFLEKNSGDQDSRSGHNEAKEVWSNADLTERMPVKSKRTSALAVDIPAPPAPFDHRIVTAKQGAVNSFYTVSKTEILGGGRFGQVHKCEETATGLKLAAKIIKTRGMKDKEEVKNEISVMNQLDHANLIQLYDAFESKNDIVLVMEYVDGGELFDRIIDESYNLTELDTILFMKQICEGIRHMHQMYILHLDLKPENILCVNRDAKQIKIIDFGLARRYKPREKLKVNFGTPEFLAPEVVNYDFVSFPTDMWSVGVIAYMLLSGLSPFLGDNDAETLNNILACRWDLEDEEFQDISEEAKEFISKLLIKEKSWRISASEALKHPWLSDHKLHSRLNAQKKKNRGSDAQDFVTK

Block 1
Target: TAR DNA-binding protein 43, full length, His tag (TARDBP, Homo sapiens, UniProt Q13148, residues 1-414)
Technique: RNA Bind-n-Seq
Molecule type: RNA
Sample: in vitro
Concentration: 20 nM
Setting: 6-mer, flanks averaged, single round
Together with: 150 mM KCl
Relative to: input library
Reading: higher = stronger binding
Quantity: 6-mer enrichment (R)
UGUGAU: 0.88
GCGGGU: 4.25
UUCCUC: 0.538
CGCCAU: 0.656
GAAAAC: 0.604
UUAACG: 0.621
GAUUCU: 0.571
GGCGGG: 9.71

Block 2
Target: Centromere-binding protein 1, full length, N-terminal tag (CBF1, Saccharomyces cerevisiae, UniProt P17106, residues 1-351)
Sequence of UniProt P17106 (whole entry, looked up): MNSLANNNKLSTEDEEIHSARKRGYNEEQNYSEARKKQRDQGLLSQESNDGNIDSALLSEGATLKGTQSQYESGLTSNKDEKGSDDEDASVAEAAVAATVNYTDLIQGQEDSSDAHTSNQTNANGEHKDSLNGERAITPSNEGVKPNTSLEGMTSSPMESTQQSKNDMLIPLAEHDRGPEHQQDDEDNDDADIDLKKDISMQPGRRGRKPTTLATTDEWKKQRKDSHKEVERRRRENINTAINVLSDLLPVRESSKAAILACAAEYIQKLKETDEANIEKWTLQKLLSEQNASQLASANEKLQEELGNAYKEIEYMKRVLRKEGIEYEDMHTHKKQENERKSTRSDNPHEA
Technique: protein-binding microarray
Molecule type: double-stranded DNA, one strand shown
Sample: in vitro
Concentration: 0.8 µM
Setting: whole 60-bp probe, no competitor
Reading: higher = stronger binding
Quantity: fluorescence intensity
Constant ends, left off below: … GTCTTGATTCGCTTGACGCTGCTG
GAATTGCTGTCTGCTGATGTCAATTAATTGTATTAG: 1010 a.u.
CTACGTATTACTTTTACCGTGATGAAGATTGGCTTC: 580 a.u.
CTAACTGGCGTTCCTACCGTGATGGCAGCGATATTC: 536 a.u.
GAATGTGGGAAAAATCACGTGCGAGAAAGTAAGTAG: 9110 a.u.
GAATCGTAAGTTGTGCGCGTGCACATTTCGCCCTAG: 1280 a.u.
GAAACTCAGACGAGCAATATCACGTGTTGCGATTAG: 11300 a.u.
CTAATATGATTAAGTCACGATAATATCTGCACTTTC: 594 a.u.
GAACTTTTTAATATCCTCGTGCTGCTCAAGGTATAG: 730 a.u.

Block 3
SMILES: CN(C)C[C@H]1CCn2c(c(C3=C(c4cn(C)c5ccccc45)C(=O)NC3=O)c3ccccc32)C1
Effect on: enzyme activity
Mode: inhibitor
Concentration: 0.5 µM
Relative to: control
Quantity: remaining activity
Casein kinase I isoform gamma-2 (CSNK1G2, Homo sapiens, UniProt P78368): 97%
Fibroblast growth factor receptor 3 (FGFR3, Homo sapiens, UniProt P22607): 96.3%
Serine/threonine-protein kinase A-Raf (ARAF, Homo sapiens, UniProt P10398): 109%
Mitogen-activated protein kinase kinase kinase 5 (MAP3K5, Homo sapiens, UniProt Q99683): 107%
Mitogen-activated protein kinase kinase kinase 14 (MAP3K14, Homo sapiens, UniProt Q99558): 105%
Serine/threonine-protein kinase TBK1 (TBK1, Homo sapiens, UniProt Q9UHD2): 91.4%
Fibroblast growth factor receptor 1 (FGFR1, Homo sapiens, UniProt P11362): 87.8%
Tyrosine-protein kinase JAK3 (JAK3, Homo sapiens, UniProt P52333): 89.4%
Wee1-like protein kinase (WEE1, Homo sapiens, UniProt P30291): 101%
Ephrin type-A receptor 3 (EPHA3, Homo sapiens, UniProt P29320): 99.2%
Tyrosine-protein kinase Mer (MERTK, Homo sapiens, UniProt Q12866): 95.4%
Dual specificity mitogen-activated protein kinase kinase 2 (MAP2K2, Homo sapiens, UniProt P36507): 101%

Block 4
Compound: CCOCCn1cc(C(=O)Nc2ccc(-n3nc(-c4cccnc4)cc3C(F)(F)F)cn2)ccc1=O
Concentration: 1 µM
Quantity: remaining binding
Receptor-type tyrosine-protein kinase FLT3, autoinhibited (FLT3, Homo sapiens, UniProt P36888); cell-free assay, competition with immobilised ligand: 87%
Glycogen synthase kinase-3 beta (GSK3B, Homo sapiens, UniProt P49841); cell-free assay, competition with immobilised ligand: 86%
Cyclin-dependent kinase 17 (CDK17, Homo sapiens, UniProt Q00537); cell-free assay, competition with immobilised ligand: 96%
Serine/threonine-protein kinase 16 (STK16, Homo sapiens, UniProt O75716); cell-free assay, competition with immobilised ligand: 92%
Serine/threonine-protein kinase 36 (STK36, Homo sapiens, UniProt Q9NRP7); cell-free assay, competition with immobilised ligand: 71%
LIM domain kinase 2 (LIMK2, Homo sapiens, UniProt P53671); cell-free assay, competition with immobilised ligand: 100%
Myosin light chain kinase family member 4 (MYLK4, Homo sapiens, UniProt Q86YV6); cell-free assay, competition with immobilised ligand: 100%
Mitogen-activated protein kinase kinase kinase 15 (MAP3K15, Homo sapiens, UniProt Q6ZN16); cell-free assay, competition with immobilised ligand: 100%
Receptor-type tyrosine-protein kinase FLT3 (FLT3, Homo sapiens, UniProt P36888, D835V/ITD); cell-free assay, competition with immobilised ligand: 86%
Epidermal growth factor receptor (EGFR, Homo sapiens, UniProt P00533, L858R); cell-free assay, competition with immobilised ligand: 90%
Mitogen-activated protein kinase kinase kinase 4 (MAP3K4, Homo sapiens, UniProt Q9Y6R4); cell-free assay, competition with immobilised ligand: 59%
AP2-associated protein kinase 1 (AAK1, Homo sapiens, UniProt Q2M2I8); binding: 100%
Serine/threonine-protein kinase haspin (HASPIN, Homo sapiens, UniProt Q8TF76); cell-free assay, competition with immobilised ligand: 100%

For quick reference, copied from above (block 4):
LIM domain kinase 2 (LIMK2, Homo sapiens, UniProt P53671); cell-free assay, competition with immobilised ligand: 100%
Myosin light chain kinase family member 4 (MYLK4, Homo sapiens, UniProt Q86YV6); cell-free assay, competition with immobilised ligand: 100%
Mitogen-activated protein kinase kinase kinase 15 (MAP3K15, Homo sapiens, UniProt Q6ZN16); cell-free assay, competition with immobilised ligand: 100%
Receptor-type tyrosine-protein kinase FLT3 (FLT3, Homo sapiens, UniProt P36888, D835V/ITD); cell-free assay, competition with immobilised ligand: 86%
Epidermal growth factor receptor (EGFR, Homo sapiens, UniProt P00533, L858R); cell-free assay, competition with immobilised ligand: 90%
Mitogen-activated protein kinase kinase kinase 4 (MAP3K4, Homo sapiens, UniProt Q9Y6R4); cell-free assay, competition with immobilised ligand: 59%
